# Assay results from different studies.
# Each numbered part is a random draw from the data of one study; scales do not carry over between parts.
# Sequence of UniProt Q07002 (whole entry, looked up): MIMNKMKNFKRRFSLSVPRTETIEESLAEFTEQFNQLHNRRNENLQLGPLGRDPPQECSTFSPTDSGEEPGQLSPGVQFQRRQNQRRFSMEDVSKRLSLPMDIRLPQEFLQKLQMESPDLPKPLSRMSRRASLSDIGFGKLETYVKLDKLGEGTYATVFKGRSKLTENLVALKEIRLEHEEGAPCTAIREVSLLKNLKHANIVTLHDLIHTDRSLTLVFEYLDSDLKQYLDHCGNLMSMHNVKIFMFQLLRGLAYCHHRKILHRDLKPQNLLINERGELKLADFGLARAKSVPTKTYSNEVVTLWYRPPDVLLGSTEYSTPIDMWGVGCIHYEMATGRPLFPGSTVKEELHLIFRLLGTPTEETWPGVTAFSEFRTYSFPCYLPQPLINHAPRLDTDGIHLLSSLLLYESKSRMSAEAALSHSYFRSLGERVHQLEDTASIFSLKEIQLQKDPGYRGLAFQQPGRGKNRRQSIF
# Sequence of UniProt Q9UK32 (whole entry, looked up): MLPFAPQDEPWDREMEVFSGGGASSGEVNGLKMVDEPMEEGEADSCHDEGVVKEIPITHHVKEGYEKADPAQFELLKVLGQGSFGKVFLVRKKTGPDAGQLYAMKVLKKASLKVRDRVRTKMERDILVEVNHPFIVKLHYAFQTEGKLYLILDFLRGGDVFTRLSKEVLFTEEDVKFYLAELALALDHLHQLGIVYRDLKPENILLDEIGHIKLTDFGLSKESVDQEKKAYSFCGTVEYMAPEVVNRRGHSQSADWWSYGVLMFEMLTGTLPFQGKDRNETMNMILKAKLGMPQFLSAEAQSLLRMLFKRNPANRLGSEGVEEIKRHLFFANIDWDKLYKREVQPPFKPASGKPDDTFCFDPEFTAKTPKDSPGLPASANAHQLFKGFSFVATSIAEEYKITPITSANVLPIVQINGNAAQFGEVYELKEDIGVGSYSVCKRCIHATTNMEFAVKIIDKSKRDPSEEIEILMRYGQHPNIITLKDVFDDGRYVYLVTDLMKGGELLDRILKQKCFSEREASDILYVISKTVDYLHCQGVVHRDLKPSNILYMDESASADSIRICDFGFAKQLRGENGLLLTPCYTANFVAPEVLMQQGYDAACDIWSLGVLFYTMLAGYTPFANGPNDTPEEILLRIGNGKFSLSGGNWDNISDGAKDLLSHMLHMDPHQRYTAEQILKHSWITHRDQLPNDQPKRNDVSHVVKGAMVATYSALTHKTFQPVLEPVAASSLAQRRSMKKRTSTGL
# Sequence of UniProt O00444 (whole entry, looked up): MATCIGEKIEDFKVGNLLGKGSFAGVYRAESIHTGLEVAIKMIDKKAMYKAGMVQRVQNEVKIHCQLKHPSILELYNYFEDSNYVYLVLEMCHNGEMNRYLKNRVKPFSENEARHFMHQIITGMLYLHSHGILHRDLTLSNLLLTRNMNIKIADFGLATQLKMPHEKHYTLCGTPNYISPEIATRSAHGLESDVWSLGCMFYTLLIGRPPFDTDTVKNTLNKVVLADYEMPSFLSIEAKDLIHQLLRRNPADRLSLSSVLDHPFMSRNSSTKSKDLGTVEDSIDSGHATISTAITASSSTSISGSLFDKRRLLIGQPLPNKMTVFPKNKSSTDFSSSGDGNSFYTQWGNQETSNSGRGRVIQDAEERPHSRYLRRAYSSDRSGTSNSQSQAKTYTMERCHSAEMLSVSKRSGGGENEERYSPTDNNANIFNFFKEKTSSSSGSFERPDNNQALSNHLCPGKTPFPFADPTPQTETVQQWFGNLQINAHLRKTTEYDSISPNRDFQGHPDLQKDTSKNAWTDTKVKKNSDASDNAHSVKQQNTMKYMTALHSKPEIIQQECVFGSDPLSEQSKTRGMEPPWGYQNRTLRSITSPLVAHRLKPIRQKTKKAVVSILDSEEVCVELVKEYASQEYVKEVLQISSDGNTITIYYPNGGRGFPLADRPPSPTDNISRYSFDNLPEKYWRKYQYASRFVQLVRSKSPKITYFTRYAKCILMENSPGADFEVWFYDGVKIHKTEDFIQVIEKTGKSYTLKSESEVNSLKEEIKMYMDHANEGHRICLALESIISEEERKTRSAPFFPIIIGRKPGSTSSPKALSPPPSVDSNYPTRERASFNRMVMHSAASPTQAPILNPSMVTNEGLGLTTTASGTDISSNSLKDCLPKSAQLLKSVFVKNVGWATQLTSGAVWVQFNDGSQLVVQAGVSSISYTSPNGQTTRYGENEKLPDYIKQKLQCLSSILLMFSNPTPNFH
# Sequence of UniProt Q9Y243 (whole entry, looked up): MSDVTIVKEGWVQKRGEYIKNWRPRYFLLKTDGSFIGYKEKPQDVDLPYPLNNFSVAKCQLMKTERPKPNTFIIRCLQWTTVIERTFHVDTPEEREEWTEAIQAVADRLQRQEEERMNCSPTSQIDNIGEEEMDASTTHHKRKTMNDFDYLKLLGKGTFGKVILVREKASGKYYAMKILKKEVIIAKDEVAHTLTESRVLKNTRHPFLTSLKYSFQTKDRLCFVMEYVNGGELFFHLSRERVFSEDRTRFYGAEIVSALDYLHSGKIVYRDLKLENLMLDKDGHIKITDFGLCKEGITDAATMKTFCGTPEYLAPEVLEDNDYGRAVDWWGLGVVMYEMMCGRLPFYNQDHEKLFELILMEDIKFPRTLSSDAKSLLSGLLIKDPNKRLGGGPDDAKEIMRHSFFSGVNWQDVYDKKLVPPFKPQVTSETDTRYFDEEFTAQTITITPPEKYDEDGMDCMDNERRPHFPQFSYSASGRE
# Sequence of UniProt Q9H2K8 (whole entry, looked up): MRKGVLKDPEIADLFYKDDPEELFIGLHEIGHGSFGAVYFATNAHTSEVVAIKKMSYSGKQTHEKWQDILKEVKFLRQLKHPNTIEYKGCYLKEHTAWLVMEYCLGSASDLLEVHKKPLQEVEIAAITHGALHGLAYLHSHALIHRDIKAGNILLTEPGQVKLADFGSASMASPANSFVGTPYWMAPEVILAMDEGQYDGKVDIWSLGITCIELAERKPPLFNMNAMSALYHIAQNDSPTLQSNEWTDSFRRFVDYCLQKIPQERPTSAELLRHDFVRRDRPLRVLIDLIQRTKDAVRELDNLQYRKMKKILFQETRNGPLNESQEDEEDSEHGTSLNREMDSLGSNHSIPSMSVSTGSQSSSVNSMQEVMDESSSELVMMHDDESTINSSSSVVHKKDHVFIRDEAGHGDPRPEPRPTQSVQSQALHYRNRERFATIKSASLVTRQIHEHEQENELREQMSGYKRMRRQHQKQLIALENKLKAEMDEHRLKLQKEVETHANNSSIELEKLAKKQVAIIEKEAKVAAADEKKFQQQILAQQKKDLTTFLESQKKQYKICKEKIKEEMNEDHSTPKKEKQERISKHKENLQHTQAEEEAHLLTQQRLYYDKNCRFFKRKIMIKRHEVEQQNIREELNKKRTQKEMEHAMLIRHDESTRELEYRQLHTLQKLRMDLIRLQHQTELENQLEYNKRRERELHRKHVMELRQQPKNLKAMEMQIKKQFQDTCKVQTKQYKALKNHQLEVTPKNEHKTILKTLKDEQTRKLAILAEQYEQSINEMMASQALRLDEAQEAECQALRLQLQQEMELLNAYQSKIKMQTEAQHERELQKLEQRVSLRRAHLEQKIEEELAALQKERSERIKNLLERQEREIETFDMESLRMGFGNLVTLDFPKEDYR
# Sequence of UniProt P23443 (whole entry, looked up): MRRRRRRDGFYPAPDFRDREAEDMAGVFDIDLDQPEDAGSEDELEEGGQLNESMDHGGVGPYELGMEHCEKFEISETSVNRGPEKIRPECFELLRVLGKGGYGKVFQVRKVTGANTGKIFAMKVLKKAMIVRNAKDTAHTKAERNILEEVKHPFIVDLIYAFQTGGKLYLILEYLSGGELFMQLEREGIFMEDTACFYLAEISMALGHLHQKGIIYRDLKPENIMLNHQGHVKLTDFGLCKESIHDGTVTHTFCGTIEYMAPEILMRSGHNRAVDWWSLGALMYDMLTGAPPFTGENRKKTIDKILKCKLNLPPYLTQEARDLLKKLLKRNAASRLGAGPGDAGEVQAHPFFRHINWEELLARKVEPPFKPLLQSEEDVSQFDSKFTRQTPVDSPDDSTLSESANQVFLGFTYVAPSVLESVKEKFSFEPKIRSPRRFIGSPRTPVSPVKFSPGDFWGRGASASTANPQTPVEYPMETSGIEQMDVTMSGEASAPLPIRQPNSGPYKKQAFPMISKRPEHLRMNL

# Set 1
# Species: mouse
# Matrix: microsomes or S9
# Tested at: 2 µM
# Time: 0.5 h
Compound,remaining compound [%]
CCC(=O)N(CCC1(c2ccccc2)CCOC(C)(C)C1)CC1CCOC(C)(C)C1 (stereo not drawn),0.724
O=C1C=C(N(Cc2ccc(Cl)nc2)Cc2cnc(Cl)s2)CO1,56.6
Cc1nc2c(c(C)c1CNC(=O)COC1CCCCC1)c(=O)[nH]n2C,80.9
c1ccc(C2CCCN2Cc2ccc3occc3c2)nc1 (stereo not drawn),0.0244
COc1ccc(CN2CCC3(CCNCC3)C2)cc1Cn1cncn1,34.9
CCOc1ccc(S(=O)(=O)N2CCN(C)CC2)cc1-c1nc(O)c2c(n1)c(C(C)(C)C)nn2C,2.29
COC(=O)C12CCC(=O)N1CCc1c2n(C(=O)OC(C)(C)C)c2ccccc12 (stereo not drawn),10.4
c1ccc(-c2nc3c(-c4ccccc4)ccc(-c4ccccc4)n3n2)cc1,82.8
CC1(C)C=C(N2CCCC2=O)c2cc(C#N)ccc2O1,60.1

# Set 2
# Target: Beta-1 adrenergic receptor (ADRB1, Homo sapiens, UniProt P08588)
# Sequence of UniProt P08588 (whole entry, looked up): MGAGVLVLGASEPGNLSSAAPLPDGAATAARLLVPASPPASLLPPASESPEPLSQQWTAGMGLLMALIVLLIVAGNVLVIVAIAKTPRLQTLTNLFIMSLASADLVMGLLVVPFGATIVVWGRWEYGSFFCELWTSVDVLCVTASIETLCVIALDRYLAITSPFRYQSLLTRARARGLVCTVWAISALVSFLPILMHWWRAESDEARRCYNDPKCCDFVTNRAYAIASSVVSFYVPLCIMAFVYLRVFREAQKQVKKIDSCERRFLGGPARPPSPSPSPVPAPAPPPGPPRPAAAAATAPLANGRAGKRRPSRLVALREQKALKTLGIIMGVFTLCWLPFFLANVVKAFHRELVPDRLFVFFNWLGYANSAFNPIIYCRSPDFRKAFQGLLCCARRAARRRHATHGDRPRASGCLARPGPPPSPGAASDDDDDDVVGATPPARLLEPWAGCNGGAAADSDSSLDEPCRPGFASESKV
# Mode: antagonist
SMILES,IC50 [µM]
COc1ccccc1N1CCC(CNC(=O)c2c[nH]c3ccccc23)C1 (stereo not drawn),≥ 100
Cn1ccnc1C(O)c1cc2n(n1)CCN(c1ncnc3[nH]cnc13)C2 (stereo not drawn),≥ 100
COCCN1CCNc2nc(COc3cccc(N4CCOCC4)c3)n(Cc3ccccc3)c2C1=O,≥ 100
O=S(=O)(O)c1cc(I)c(O)c2ncccc12,≥ 100
COc1cc(-c2nccc3c(=O)cc(N(C)c4ccccc4)oc23)ccn1,≥ 100
O=C(NCCc1nccc(-c2ccccc2)n1)c1ccc2cccc(F)c2n1,≥ 100
Cc1noc2c(-c3cccnc3)cc(-c3ccc(F)cc3)nc12,≥ 100
CCc1sc(-c2cc3ccc(O)cc3oc2=O)nc1-c1cc(C)ccc1C,≥ 100

# Set 3
# Target: Hepatocyte nuclear factor 3-beta, forkhead domain (FOXA2, Homo sapiens, UniProt Q9Y261, residues 142-269)
# Method: protein-binding microarray
# Form: double-stranded DNA, one strand shown
# Matrix: in vitro
# Tested at: not given
# Setting: k-mer, scored over probes, only values ≥0.25
# Reading: higher = stronger binding
# Target sequence (chain): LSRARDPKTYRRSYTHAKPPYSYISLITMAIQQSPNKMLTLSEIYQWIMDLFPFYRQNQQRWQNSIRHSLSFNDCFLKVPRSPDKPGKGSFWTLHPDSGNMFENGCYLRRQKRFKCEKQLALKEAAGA
Sequence,E-score
ATAACTAA,0.274
AGACAACT,0.27
GTTAATTA,0.301
CTGTATTC,0.324
TGACACAA,0.309
TAATAACA,0.266
AGTTAACA,0.262
CACGGATA,0.286

# Set 4
# Structure (SMILES): CCCOc1ccc([C@@H]2[C@@H](C(=O)O)[C@H](c3ccc4c(c3)OCO4)CN2CC(=O)Nc2c(CC)cccc2CC)cc1
# Effect on: cell-free assay
# Method: competition with immobilised ligand
# Tested at: 1 µM
target,remaining binding [%]
"Serine/threonine-protein kinase N2 (PKN2, Homo sapiens, UniProt Q16513)",100
"Tyrosine-protein kinase ABL1, phosphorylated (ABL1, Homo sapiens, UniProt P00519, H396P)",90
"Epidermal growth factor receptor (EGFR, Homo sapiens, UniProt P00533, A750P/del747-749)",78
"Epidermal growth factor receptor (EGFR, Homo sapiens, UniProt P00533, T790M)",93
"Myosin light chain kinase (MYLK3, Homo sapiens, UniProt Q32MK0)",87
"Ribosomal protein S6 kinase alpha-3, N-terminal kinase domain (RPS6KA3, Homo sapiens, UniProt P51812)",95
"Serine/threonine-protein kinase PLK1 (PLK1, Homo sapiens, UniProt P53350)",95
"Ribosomal protein S6 kinase alpha-6, N-terminal kinase domain (RPS6KA6, Homo sapiens, UniProt Q9UK32)",91
"RAC-gamma serine/threonine-protein kinase (AKT3, Homo sapiens, UniProt Q9Y243)",100
"Serine/threonine-protein kinase TAO3 (TAOK3, Homo sapiens, UniProt Q9H2K8)",100
"Cyclin-dependent kinase-like 2 (CDKL2, Homo sapiens, UniProt Q92772)",96
"Cyclin-dependent kinase 18 (CDK18, Homo sapiens, UniProt Q07002)",100
"Ribosomal protein S6 kinase beta-1 (RPS6KB1, Homo sapiens, UniProt P23443)",79
"Serine/threonine-protein kinase PLK4 (PLK4, Homo sapiens, UniProt O00444)",82

# For quick reference, copied from above (set 1):
Compound,remaining compound [%]
c1ccc(-c2nc3c(-c4ccccc4)ccc(-c4ccccc4)n3n2)cc1,82.8
CCOc1ccc(S(=O)(=O)N2CCN(C)CC2)cc1-c1nc(O)c2c(n1)c(C(C)(C)C)nn2C,2.29
